{"data": "Measurements of several laboratories", "note": "Parts stem from different laboratories: compare values within a part only. Changes are numbered by the printed parent chain."}
{"data": "Set 1", "target": "Histone acetyltransferase KAT6A, winged helix 2, GST fusion (KAT6A, Homo sapiens, UniProt Q92794, residues 85-181)", "method": "protein binding microarray", "molecule type": "double-stranded DNA, one strand shown", "sample": "in vitro", "concentration": "not given", "setting": "8-mer, flanks averaged, mean of 2 arrays, mostly near background", "reference": "not given", "direction": "higher = stronger binding", "Construct (chain)": "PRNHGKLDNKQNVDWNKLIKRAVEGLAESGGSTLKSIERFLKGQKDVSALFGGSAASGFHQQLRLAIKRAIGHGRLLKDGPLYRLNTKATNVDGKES"}
{"Strand": "GAGGTACC", "E-score": 0.0782}
{"Strand": "ACTTAATC", "E-score": -0.11}
{"Strand": "AGTCCGGA", "E-score": 0.0279}
{"Strand": "AGCAAGTA", "E-score": -0.0578}
{"Strand": "GTACCCGA", "E-score": -0.121}
{"Strand": "ACATCCTC", "E-score": -0.177}
{"Strand": "GTCCTCGA", "E-score": -0.0947}
{"Strand": "ATCAAAAA", "E-score": 0.0768}
{"Strand": "GGTCGTCA", "E-score": -0.0726}
{"data": "Set 2", "target": "ABI1, truncated, D143A, DHFR fusion (Arabidopsis thaliana)", "method": "DHFR PCA, deep sequencing", "sample": "yeast", "setting": "methotrexate growth selection, single substitutions", "added": "(+)-ABA 2500 µM", "reference": "wild-type fitted maximum", "direction": "higher = stronger binding", "parent": "PYL1, truncated, DHFR fusion (Arabidopsis thaliana); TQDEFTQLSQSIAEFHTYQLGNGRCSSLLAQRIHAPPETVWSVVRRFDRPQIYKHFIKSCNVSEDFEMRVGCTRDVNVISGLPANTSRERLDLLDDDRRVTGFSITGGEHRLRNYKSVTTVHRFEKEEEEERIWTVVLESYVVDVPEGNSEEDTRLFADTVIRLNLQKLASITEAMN"}
{"Change": "A170H", "relative binding score": "86.1%"}
{"Change": "G71K", "relative binding score": "79.9%"}
{"Change": "R111Y", "relative binding score": "72.6%"}
{"Change": "Q2E", "relative binding score": "90.8%"}
{"Change": "P50K", "relative binding score": "-11.6%"}
{"data": "Set 3", "target": "CCNA2, cyclin fold, Cln2 fusion (human)", "method": "yeast growth competition, sequencing", "sample": "yeast", "setting": "strong parent motif", "reference": "not given", "direction": "higher = stronger binding", "parent": "HASPIN docking peptide (human); ASLRSVLFGLMNS"}
{"Change": "V6A", "normalised enrichment score": 1.18}
{"Change": "L10A", "normalised enrichment score": 0.93}
{"Change": "L7A", "normalised enrichment score": 0.649}
{"Change": "N12A", "normalised enrichment score": 1.9}
{"Change": "S5A", "normalised enrichment score": 1.43}
{"Change": "L3A", "normalised enrichment score": 0.891}
{"data": "Further values, each from its own experiment"}
{"Molecule": "PhoQ, residues 284 288 289 292 302 303 NLAAMI", "target": "PhoP, residues 12 14 15 18 19 SQCLL (Escherichia coli, UniProt P23836)", "test": "Sort-seq, item: YFP reporter", "system": "E. coli", "conditions": "PhoQ-PhoP variant library, added: 10 µM Mg2+", "scale": "reference: high Mg2+ state, higher = stronger signaling", "quantity": "fold induction", "value": 5.45}
{"note": "For quick reference, copied from above (set 1):"}
{"Strand": "GAGGTACC", "E-score": 0.0782}
{"Strand": "ACTTAATC", "E-score": -0.11}
{"Strand": "AGTCCGGA", "E-score": 0.0279}
{"Strand": "AGCAAGTA", "E-score": -0.0578}
